Experimental data from different studies.
Protocols differ between the studies behind these lines.

O=C(Nc1nc2cccc(-c3ccc(CN4CCS(=O)(=O)CC4)cc3)n2n1)C1CC1 — result for “patients with adverse event”: 0% (refers to: abdominal discomfort; rheumatoid arthritis patients; oral, 300 mg once daily, 4 weeks, any relatedness).
CNC(=O)c1ccc(-c2cnc3ncc(Cc4ccc5ncccc5c4)n3n2)cc1F: “patients with adverse event” 18% (refers to: Asthenia, all grades; cancer patients; oral, dose not given, dose escalation, any causality).
Under “patients discontinuing for AE”, C[C@@H](Nc1cc(F)cc(F)c1)c1cc(C(=O)N(C)C)cc2c(=O)cc(N3CCOCC3)oc12 is recorded as 0% (CTCAE v4, refers to: maculopapular rash; patients with advanced solid tumours; oral, dose not given, phase I dose expansion).
Cc1cc(NC2CCN(C(=O)OC3CCN(C(=O)/C=C/CN(C)C)C3)CC2)n2ncc(C(C)C)c2n1 (centres unmarked): “patients with adverse event” 0% (Phase I dose escalation CTCAE v4.0, refers to: blood creatinine increased; patients with advanced solid tumours; dose not given, TIW dosing grade 3 or higher).
For FC(F)(F)c1ccc(CNc2ccc(Cc3c[nH]c4ncc(Cl)cc34)cn2)cn1, “patients with treatment-related adverse event” read 0% (refers to: hair colour changes; non-TGCT solid tumour patients; oral, 1000 mg/day, grade 3 or higher).
For Cc1cc(-c2nnc(N)nc2-c2ccc(F)cc2)cc(Cl)n1, “patients with immune-mediated AE” read 4% (refers to: Rash; IO-naive colorectal cancer patients; oral, dose not given, treatment-related, grade 1).
COc1cc(Nc2ncc3c(n2)-c2ccc(Cl)cc2C(c2c(F)cccc2OC)=NC3)ccc1C(=O)O — result for “patients with adverse event”: 13% (refers to: Fever, all grades; cancer patients, phase 1/2; oral, dose not given, with: pembrolizumab).
Under “patients with fatigue”, COc1ccc([C@@H](O)c2cc(-c3ncnc4cc(N5CCOCC5)ccc34)c(F)cc2Cl)nn1 is recorded as 67% (locally advanced rectal cancer patients; 100 mg, drug-related adverse events, with: capecitabine and radiotherapy).

Repeated from above:
Cc1cc(NC2CCN(C(=O)OC3CCN(C(=O)/C=C/CN(C)C)C3)CC2)n2ncc(C(C)C)c2n1 (centres unmarked): “patients with adverse event” 0% (Phase I dose escalation CTCAE v4.0, refers to: blood creatinine increased; patients with advanced solid tumours; dose not given, TIW dosing grade 3 or higher).
